# Measured values pooled from the literature.
# A part holds a random share of what one study measured.

# Series 1 — read-out: enzyme activity; concentration: 10 µM
# Compound: Cc1sc(C(=O)NC2COC2)cc1-n1cc(NC(=O)Nc2c(F)cccc2Cl)cn1
target,assay,scale,remaining activity [%]
"RAC-beta serine/threonine-protein kinase (AKT2, Homo sapiens, UniProt P31751)",,baseline: untreated control,89.8
"Activin receptor type-1B (ACVR1B, Homo sapiens, UniProt P36896)",,baseline: untreated control,78.4
"Serine/threonine-protein kinase SIK1 (SIK1, Homo sapiens, UniProt P57059)",,baseline: untreated control,95.4
"Protein kinase C beta type, isoform beta-I (PRKCB, Homo sapiens, UniProt P05771)",,baseline: untreated control,105
"LIM domain kinase 2 (LIMK2, Homo sapiens, UniProt P53671)",,baseline: untreated control,98.2
"BDNF/NT-3 growth factors receptor (NTRK2, Homo sapiens, UniProt Q16620)",,baseline: untreated control,83
"Dual specificity tyrosine-phosphorylation-regulated kinase 1A (DYRK1A, Homo sapiens, UniProt Q13627)",,baseline: untreated control,94.3
"Ribosomal protein S6 kinase alpha-4 (RPS6KA4, Homo sapiens, UniProt O75676)",,baseline: untreated control,104
"Serine/threonine-protein kinase WNK2 (WNK2, Homo sapiens, UniProt Q9Y3S1)",,baseline: untreated control,90.5
"Citron Rho-interacting kinase (CIT, Homo sapiens, UniProt O14578)",inhibitor,,98.8
"Serine/threonine-protein kinase PAK 5 (PAK5, Homo sapiens, UniProt Q9P286)",,baseline: untreated control,103
"Receptor tyrosine-protein kinase erbB-2 (ERBB2, Homo sapiens, UniProt P04626)",,baseline: untreated control,63.3
"Myosin-IIIa (MYO3A, Homo sapiens, UniProt Q8NEV4)",,baseline: untreated control,88.2

# Series 2 — organism: Sarcocystis neurona; read-out: parasite growth; strain: GFP/luciferase reporter; concentration: 10 µM; setting: hit confirmation screen
Structure (SMILES),inhibition [%]
O=C1CN(/N=C/c2ccc(-c3ccc([N+](=O)[O-])cc3)o2)C(O)=N1,97.7
COC(=O)C[C@](O)(CCCC(C)(C)O)C(=O)O[C@@H]1C(OC)=C[C@]23CCCN2CCc2cc4c(cc2[C@H]13)OCO4,99.9
Oc1c(Cl)cc(Cl)c2cccnc12,99.5
CN1CCN(CC/C=C2/c3ccccc3Sc3ccc(S(=O)(=O)N(C)C)cc32)CC1,94
C[C@H]1[C@H](OC(=O)CCC(=O)O)O[C@@H]2O[C@@]3(C)CC[C@H]4[C@H](C)CC[C@@H]1[C@@]24OO3,92.1
CCN(CC)C(=S)SSC(=S)N(CC)CC,99.9
CN1CCCC(n2nc(Cc3ccc(Cl)cc3)c3ccccc3c2=O)CC1 (stereo not drawn),99
COc1cccc2c1C(=O)c1c(O)c3c(c(O)c1C2=O)C[C@@](O)(C(=O)CO)C[C@@H]3O[C@H]1C[C@H](N)[C@@H](O)[C@H](C)O1,98.5
CC(=O)[C@]1(O)Cc2c(O)c3c(c(O)c2[C@@H](O[C@H]2C[C@H](N)[C@H](O)[C@H](C)O2)C1)C(=O)c1ccccc1C3=O,99.8
COc1cc(NC(C)CCCN)c2ncccc2c1 (stereo not drawn),100
O=C(c1ccc(F)cc1)C1CCN(CCn2c(=S)[nH]c3ccccc3c2=O)CC1,98.6
CC(C)/N=c1\cc2n(-c3ccc(Cl)cc3)c3ccccc3nc-2cc1Nc1ccc(Cl)cc1,98.9
OCCN1CCN(CCCN2c3ccccc3Sc3ccc(Cl)cc32)CC1,99.2

# Series 3 — read-out: enzyme activity; mode: inhibitor; concentration: 0.5 µM; baseline: control
# Target: Serine/threonine-protein kinase 3 (STK3, Homo sapiens, UniProt Q13188)
# Target sequence (Q13188 1-491): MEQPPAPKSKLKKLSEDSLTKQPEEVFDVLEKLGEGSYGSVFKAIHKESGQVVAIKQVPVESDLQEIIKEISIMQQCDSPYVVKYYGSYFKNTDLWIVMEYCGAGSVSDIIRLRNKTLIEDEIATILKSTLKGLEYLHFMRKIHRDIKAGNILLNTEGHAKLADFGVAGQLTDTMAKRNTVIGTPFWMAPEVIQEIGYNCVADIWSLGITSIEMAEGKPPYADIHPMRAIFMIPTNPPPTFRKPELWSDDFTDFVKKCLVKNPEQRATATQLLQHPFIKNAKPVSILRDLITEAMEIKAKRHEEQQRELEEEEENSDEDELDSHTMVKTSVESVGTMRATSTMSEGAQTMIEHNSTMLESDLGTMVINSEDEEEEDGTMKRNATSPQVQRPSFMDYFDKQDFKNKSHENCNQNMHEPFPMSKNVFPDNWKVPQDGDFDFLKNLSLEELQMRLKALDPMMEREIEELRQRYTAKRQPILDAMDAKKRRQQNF
Structure (SMILES),remaining activity [%]
CCCC(=O)Oc1ccc2[nH]c(C(=O)c3cc4ccccc4[nH]3)cc2c1,87
CC(=O)c1ccc(N2CCOCC2)cc1O,98.9
CC(C)(C)n1nc(Cc2cccc3ccccc23)c2c(N)ncnc21,82
N#CC(=C(N)Sc1ccc(N)cc1)c1ccccc1C(F)(F)F,125
COc1ccc(S(=O)(=O)N(CCO)c2ccccc2CN(C)CC=Cc2ccc(Cl)cc2)cc1,101
Nc1nc(Nc2ccc(S(N)(=O)=O)cc2)nn1C(=O)c1c(F)cccc1F,34.3
Oc1ccc(Nc2nc(-c3ccc(Cl)cc3)cs2)cc1,114
O=S(=O)(NCCNC/C=C/c1ccc(Br)cc1)c1cccc2cnccc12,65.6
COc1cc(Nc2c(C#N)cnc3cc(OCCCN4CCN(C)CC4)c(OC)cc23)c(Cl)cc1Cl,13.9
Cc1cc(Nc2nc(-c3ccccc3)nc3ccccc23)n[nH]1,58.5
O=C1Cc2c([nH]c3ccc([N+](=O)[O-])cc23)-c2ccccc2N1,70.3
Cc1ccc(NC2=CC(=O)c3sc(C)nc3C2=O)cc1,105
CSc1nc(-c2ccnc(N[C@@H](C)c3ccccc3)c2)c(-c2ccc(F)cc2)[nH]1 (racemic),88.8
CC#CC(=O)Nc1cc2c(Nc3ccc(F)c(Cl)c3)ncnc2cn1,106
CC[n+]1c(/C=C/N(C)c2ccccc2)n(-c2ccccc2)c2ccc(-c3nc4ccccc4s3)cc21,98.9
Fc1ccc(-c2nc3n(c2-c2ccncc2)CCS3)cc1,111
O=C1NC(=O)C(c2c[nH]c3ccccc23)=C1c1c[nH]c2ccccc12,64.7
Nc1ncnc2c1cnn2-c1ccccc1,92.3
Nc1nccc(-c2c(-c3ccc(F)cc3)ncn2C2CCNCC2)n1,103
Cc1cncc2cccc(S(=O)(=O)N3CCCN(C(=O)CN)C[C@@H]3C)c12,104
NC(=O)c1ccc(N(C(N)=O)c2c(F)cccc2F)nc1-c1ccc(F)cc1F,94.1
CCc1[nH]c(-c2ccc(OC)cc2)nc1-c1ccncc1,104

# Series 4 — read-out: cell-free assay; technique: competition with immobilised ligand; concentration: 1 µM
# Compound: CN(C)c1ncnc(-c2ccc3nc(Nc4cc(CN5CCN(C(=O)CC(F)(F)F)CC5)ccn4)[nH]c3c2)c1Cl
target,remaining binding
"Rhodopsin kinase GRK1 (GRK1, Homo sapiens, UniProt Q15835)",90%
"Serine/threonine-protein kinase MAK (MAK, Homo sapiens, UniProt P20794)",100%
"Mitogen-activated protein kinase kinase kinase 20 (MAP3K20, Homo sapiens, UniProt Q9NYL2)",65%
"Calcium/calmodulin-dependent protein kinase type 1D (CAMK1D, Homo sapiens, UniProt Q8IU85)",100%
"Ribosomal protein S6 kinase alpha-6, N-terminal kinase domain (RPS6KA6, Homo sapiens, UniProt Q9UK32)",84%
"NUAK family SNF1-like kinase 1 (NUAK1, Homo sapiens, UniProt O60285)",100%
"Serine/threonine-protein kinase Nek2 (NEK2, Homo sapiens, UniProt P51955)",86%
"Mitogen-activated protein kinase kinase kinase 12 (MAP3K12, Homo sapiens, UniProt Q12852)",64%
"Serine/threonine-protein kinase DCLK1 (DCLK1, Homo sapiens, UniProt O15075)",92%
"Mitogen-activated protein kinase 1 (MAPK1, Homo sapiens, UniProt P28482)",100%
"Dual specificity tyrosine-phosphorylation-regulated kinase 2 (DYRK2, Homo sapiens, UniProt Q92630)",81%
"Leucine-rich repeat serine/threonine-protein kinase 2 (LRRK2, Homo sapiens, UniProt Q5S007)",84%
"Tyrosine-protein kinase ABL1, phosphorylated (ABL1, Homo sapiens, UniProt P00519, H396P)",44%
"Activin receptor type-1-like (ACVRL1, Homo sapiens, UniProt P37023)",94%
"Tyrosine-protein kinase Fgr (FGR, Homo sapiens, UniProt P09769)",98%
"STE20-like serine/threonine-protein kinase (SLK, Homo sapiens, UniProt Q9H2G2)",100%
"Serine/threonine-protein kinase ULK2 (ULK2, Homo sapiens, UniProt Q8IYT8)",64%
"5'-AMP-activated protein kinase catalytic subunit alpha-1 (PRKAA1, Homo sapiens, UniProt Q13131)",100%
"Dual specificity testis-specific protein kinase 1 (TESK1, Homo sapiens, UniProt Q15569)",78%
"Cyclin-dependent kinase-like 2 (CDKL2, Homo sapiens, UniProt Q92772)",100%
"Serine/threonine-protein kinase Chk2 (CHEK2, Homo sapiens, UniProt O96017)",100%
"Calcium/calmodulin-dependent protein kinase type 1G (CAMK1G, Homo sapiens, UniProt Q96NX5)",100%
"Serine/threonine-protein kinase 32B (STK32B, Homo sapiens, UniProt Q9NY57)",100%
"Serine/threonine-protein kinase 17A (STK17A, Homo sapiens, UniProt Q9UEE5)",34%

# Repeated from above (series 3):
Structure (SMILES),remaining activity [%]
O=C1NC(=O)C(c2c[nH]c3ccccc23)=C1c1c[nH]c2ccccc12,64.7
Nc1ncnc2c1cnn2-c1ccccc1,92.3
Nc1nccc(-c2c(-c3ccc(F)cc3)ncn2C2CCNCC2)n1,103
Cc1cncc2cccc(S(=O)(=O)N3CCCN(C(=O)CN)C[C@@H]3C)c12,104
